Measurements gathered from unrelated publications.
Numbers after ± are the reported error.
CSNK2A1: Casein kinase II subunit alpha (CSNK2A1, Homo sapiens, UniProt P68400)
Chain of UniProt P68400 (whole entry, looked up): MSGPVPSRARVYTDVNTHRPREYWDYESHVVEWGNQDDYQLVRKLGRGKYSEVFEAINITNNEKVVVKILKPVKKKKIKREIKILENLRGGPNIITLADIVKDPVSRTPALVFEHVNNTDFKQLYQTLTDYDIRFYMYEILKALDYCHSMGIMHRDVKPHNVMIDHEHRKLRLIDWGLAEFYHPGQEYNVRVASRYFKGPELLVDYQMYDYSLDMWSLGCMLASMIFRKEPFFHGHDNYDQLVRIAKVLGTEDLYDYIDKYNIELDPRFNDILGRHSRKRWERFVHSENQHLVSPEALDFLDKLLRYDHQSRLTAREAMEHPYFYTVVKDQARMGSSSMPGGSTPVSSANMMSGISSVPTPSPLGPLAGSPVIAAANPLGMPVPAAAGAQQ
blaNDM-1: Metallo-beta-lactamase type 2 (blaNDM-1, Klebsiella pneumoniae, UniProt C7C422)
Chain of UniProt C7C422 (whole entry, looked up): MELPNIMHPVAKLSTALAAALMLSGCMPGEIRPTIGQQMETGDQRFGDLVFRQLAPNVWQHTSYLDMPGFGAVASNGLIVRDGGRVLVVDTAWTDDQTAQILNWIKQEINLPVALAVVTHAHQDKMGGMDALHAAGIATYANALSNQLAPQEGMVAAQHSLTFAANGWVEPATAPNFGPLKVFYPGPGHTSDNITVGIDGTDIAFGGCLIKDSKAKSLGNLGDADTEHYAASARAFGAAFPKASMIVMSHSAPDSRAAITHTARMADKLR
KLRK1 with ULBP6: NKG2-D type II integral membrane protein, with ULBP6 (KLRK1, Homo sapiens, UniProt P26718)
Chain of UniProt P26718 (whole entry, looked up): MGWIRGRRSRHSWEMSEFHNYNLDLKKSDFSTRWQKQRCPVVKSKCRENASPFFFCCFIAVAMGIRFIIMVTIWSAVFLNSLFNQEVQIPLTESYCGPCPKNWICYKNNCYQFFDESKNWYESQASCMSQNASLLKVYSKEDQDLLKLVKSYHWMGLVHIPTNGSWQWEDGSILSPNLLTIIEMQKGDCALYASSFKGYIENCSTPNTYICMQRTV
Chain of UniProt P33261 (whole entry, looked up): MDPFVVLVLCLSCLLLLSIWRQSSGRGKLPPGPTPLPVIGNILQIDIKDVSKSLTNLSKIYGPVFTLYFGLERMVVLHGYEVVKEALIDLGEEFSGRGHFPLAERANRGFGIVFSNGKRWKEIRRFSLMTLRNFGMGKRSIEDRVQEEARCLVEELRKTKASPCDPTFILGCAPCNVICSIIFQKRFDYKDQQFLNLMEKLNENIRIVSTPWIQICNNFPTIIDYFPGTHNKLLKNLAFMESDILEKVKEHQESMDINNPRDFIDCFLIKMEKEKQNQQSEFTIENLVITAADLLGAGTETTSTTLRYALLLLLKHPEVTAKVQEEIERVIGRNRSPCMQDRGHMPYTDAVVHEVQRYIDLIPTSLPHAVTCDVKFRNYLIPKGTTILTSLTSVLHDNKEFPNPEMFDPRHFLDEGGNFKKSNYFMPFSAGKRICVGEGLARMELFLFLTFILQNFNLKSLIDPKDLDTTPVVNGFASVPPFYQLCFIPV
Chain of UniProt P52699 (whole entry, looked up): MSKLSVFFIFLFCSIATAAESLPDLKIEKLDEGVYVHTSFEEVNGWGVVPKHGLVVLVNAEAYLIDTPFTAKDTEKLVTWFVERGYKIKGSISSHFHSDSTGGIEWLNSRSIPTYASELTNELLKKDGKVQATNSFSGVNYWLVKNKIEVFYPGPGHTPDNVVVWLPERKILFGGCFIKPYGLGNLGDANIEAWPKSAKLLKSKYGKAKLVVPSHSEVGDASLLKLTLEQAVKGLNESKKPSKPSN
Chain of UniProt P30969 (whole entry, looked up): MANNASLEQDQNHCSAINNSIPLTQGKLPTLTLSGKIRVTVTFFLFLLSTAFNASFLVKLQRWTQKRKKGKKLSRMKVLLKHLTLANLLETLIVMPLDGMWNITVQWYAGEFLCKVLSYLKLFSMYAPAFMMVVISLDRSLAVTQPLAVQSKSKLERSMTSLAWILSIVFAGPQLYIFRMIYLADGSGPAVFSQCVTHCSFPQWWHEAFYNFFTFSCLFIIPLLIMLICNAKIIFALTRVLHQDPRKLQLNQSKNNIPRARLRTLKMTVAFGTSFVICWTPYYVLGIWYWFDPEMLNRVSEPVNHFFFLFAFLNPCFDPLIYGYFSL
Chain of UniProt P48542 (whole entry, looked up): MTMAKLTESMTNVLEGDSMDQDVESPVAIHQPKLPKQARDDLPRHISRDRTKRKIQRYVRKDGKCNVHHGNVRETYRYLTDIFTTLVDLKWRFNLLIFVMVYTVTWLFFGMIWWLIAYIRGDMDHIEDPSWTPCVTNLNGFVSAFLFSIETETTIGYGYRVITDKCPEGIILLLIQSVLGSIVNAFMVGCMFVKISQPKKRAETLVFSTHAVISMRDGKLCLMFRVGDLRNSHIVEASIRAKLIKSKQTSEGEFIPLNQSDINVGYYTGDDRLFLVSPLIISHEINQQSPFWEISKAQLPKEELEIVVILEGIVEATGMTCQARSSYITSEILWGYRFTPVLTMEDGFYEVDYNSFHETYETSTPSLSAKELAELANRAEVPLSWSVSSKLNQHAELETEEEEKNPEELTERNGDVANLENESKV
Chain of UniProt Q7Z5W3 (whole entry, looked up): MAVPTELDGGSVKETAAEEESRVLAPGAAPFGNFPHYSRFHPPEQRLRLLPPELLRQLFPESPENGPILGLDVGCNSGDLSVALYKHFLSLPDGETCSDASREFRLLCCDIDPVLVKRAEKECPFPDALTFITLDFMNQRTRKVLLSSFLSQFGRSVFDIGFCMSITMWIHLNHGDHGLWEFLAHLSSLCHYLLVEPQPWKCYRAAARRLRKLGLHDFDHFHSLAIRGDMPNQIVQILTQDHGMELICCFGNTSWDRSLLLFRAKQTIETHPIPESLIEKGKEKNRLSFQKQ
Chain of UniProt P28074 (whole entry, looked up): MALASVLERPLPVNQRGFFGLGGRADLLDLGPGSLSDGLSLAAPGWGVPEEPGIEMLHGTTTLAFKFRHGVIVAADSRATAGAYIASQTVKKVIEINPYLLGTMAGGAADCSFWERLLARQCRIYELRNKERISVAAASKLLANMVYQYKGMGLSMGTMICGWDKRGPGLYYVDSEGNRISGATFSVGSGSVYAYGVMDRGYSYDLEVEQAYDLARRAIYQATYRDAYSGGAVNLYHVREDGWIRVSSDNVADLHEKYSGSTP
Chain of UniProt Q58513 (whole entry, looked up): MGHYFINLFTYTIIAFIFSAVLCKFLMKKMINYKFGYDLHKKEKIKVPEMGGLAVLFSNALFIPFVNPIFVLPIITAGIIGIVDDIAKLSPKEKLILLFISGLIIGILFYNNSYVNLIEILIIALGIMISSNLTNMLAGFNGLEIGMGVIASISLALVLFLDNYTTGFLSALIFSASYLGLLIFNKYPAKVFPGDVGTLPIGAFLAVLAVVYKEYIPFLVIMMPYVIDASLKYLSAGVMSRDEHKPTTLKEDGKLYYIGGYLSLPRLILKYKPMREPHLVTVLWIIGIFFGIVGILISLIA
Chain of UniProt P63251 (whole entry, looked up): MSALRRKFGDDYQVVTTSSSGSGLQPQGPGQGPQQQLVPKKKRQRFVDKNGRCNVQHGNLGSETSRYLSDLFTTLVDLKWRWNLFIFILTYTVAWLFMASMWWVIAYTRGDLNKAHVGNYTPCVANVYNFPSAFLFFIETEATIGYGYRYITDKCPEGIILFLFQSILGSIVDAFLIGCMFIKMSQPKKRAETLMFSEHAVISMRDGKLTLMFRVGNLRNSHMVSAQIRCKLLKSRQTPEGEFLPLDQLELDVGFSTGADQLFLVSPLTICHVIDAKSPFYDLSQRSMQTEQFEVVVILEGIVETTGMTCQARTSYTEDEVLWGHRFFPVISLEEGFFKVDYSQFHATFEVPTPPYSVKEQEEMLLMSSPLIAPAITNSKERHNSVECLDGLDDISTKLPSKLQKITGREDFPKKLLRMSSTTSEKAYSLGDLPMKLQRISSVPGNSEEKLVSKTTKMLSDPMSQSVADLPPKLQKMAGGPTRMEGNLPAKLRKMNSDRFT
Chain of UniProt P40261 (whole entry, looked up): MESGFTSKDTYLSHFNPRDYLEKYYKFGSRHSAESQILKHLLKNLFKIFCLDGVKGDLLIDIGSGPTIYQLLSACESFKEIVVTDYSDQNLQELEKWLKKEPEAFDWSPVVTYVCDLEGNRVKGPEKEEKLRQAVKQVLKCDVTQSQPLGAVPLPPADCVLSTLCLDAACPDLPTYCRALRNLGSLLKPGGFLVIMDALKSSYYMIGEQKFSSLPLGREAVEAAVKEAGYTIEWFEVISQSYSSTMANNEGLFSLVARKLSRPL
Chain of UniProt Q9H4M9 (whole entry, looked up): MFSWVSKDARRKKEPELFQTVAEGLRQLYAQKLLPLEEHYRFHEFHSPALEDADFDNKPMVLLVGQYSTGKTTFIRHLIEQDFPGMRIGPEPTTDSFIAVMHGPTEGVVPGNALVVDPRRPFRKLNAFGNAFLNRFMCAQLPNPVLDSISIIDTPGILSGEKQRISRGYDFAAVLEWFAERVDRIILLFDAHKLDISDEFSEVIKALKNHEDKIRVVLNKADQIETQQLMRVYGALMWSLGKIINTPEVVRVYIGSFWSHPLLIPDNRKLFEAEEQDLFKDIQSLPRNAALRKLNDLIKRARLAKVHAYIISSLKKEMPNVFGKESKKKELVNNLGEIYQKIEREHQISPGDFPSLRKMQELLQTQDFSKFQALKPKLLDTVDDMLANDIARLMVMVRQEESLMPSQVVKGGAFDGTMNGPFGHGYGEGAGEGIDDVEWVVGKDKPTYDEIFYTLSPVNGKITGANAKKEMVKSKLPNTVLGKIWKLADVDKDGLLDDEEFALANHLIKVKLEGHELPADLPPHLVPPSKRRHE
Chain of UniProt P63104 (whole entry, looked up): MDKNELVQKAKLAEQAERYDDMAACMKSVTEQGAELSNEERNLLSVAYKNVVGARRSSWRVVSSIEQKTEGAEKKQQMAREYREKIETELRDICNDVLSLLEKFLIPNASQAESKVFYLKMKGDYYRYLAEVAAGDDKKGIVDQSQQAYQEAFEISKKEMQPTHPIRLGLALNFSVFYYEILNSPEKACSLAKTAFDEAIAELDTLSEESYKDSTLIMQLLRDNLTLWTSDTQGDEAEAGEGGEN

With CC(=O)NC1C(OC2OC(CC(O)C3OC(n4ccc(=O)[nH]c4=O)C(O)C3O)C(O)C(O)C2NC(=O)C=CCCCCCCCCCC(C)C)OC(CO)C(O)C1O (stereo not drawn) the IC50 was > 50 µM (Putative glycosyltransferase MJ1113 (Methanocaldococcus jannaschii, UniProt Q58513); enzyme activity, inhibitor; Methanococcus jannaschii enzyme).
With Cc1c(C(=O)CC2OC(=O)C(Cl)=C2Cl)sc2ccc(Cl)cc12 (stereo not drawn) the IC50 was 71 ± 14 µM (Genome polyprotein, NS3 protease (Hepatitis C virus genotype 1b, UniProt P26663); Hepatitis C virus).
For C#CCCC(=O)N[C@H]1CSCc2ccccc2CSCCNC(=O)[C@H](CCC(=O)O)NC(=O)[C@H](CCC(=O)O)NC(=O)[C@H](Cc2ccccc2)NC(=O)[C@@H]2CCCN2C(=O)[C@H](CC(N)=O)NC1=O, the IC50 was 62.8 ± 0.5 µM (EH domain-containing protein 1, EH domain (Homo sapiens, UniProt Q9H4M9)).
CC[C@H](C)[C@@H]1NC(=O)[C@H]([C@@H](C)O)NC(=O)CNC(=O)[C@H](CCCNC(=N)N)NC(=O)[C@H](CC(C)C)NC(=O)[C@@H]2CSSC[C@H](NC1=O)C(=O)N[C@H](C(=O)N[C@@H](CO)C(=O)NCC(N)=O)CSSC[C@H](NC(=O)[C@H](C)N)C(=O)N[C@@H](C)C(=O)N[C@@H](Cc1c[nH]c3ccccc13)C(=O)N2 gave an IC50 of 274 µM (Chymotrypsin-like elastase family member 1 (CELA1, Sus scrofa, UniProt P00772); enzyme activity, inhibitor, absorbance; pH 7.4).
For CC[C@H](C)[C@@H]1NC(=O)[C@H](CCCNC(=N)N)NC(=O)[C@H](CC(N)=O)NC(=O)[C@@H]2CSSC[C@@H](C(=O)NCC(=O)N[C@@H](CCCCN)C(=O)N[C@@H](CCCCN)C(N)=O)NC(=O)[C@H](C)NC(=O)[C@H](CCCCN)NC(=O)[C@H](Cc3c[nH]c4ccccc34)NC(=O)[C@H](CSSC[C@H](NC(=O)[C@H](CC(C)C)NC(=O)[C@H](C)N)C(=O)N[C@@H](CC(N)=O)C(=O)N2)NC(=O)[C@H](CCC(N)=O)NC(=O)[C@H](Cc2c[nH]cn2)NC(=O)[C@@H]2CCCN2C(=O)[C@H]([C@@H](C)CC)NC(=O)[C@H]([C@@H](C)CC)NC1=O, the IC50 was 0.028 ± 0.003 µM (Kcnj6/Kcnj3 (Mus musculus, UniProt P48542+P63251); ion current, inhibitor, two-electrode voltage clamp; Xenopus laevis oocytes; -80 mV, 20 mM K+, together with: Gbeta1gamma2 activation).
CNC(=O)C1CN1S(=O)(=O)c1ccc(C(C)(C)C)cc1 (stereo not drawn) gave an IC50 of 62 µM (Protein disulfide-isomerase A3 (PDIA3, Homo sapiens, UniProt P30101); enzyme activity, inhibitor, absorbance; pH 7.6).
CC(=O)N[C@@H](CCCNC(=N)N)C(=O)N[C@H](C(=O)N1CCC[C@H]1C(=O)N[C@@H](COP(=O)(O)O)C(=O)N[C@@H](CC(C)C)C(=O)N1CCC[C@H]1C(=O)N[C@H](C(=O)N1CCC[C@H]1C(c1ccccc1)c1ccccc1)C(C)C)[C@@H](C)O has an IC50 of 6.2 µM (14-3-3 protein zeta/delta (YWHAZ, Homo sapiens, UniProt P63104); peptide binding, inhibitor, competitive fluorescence polarization; 10 µM protein, together with: 100 nM FAM-labelled diphosphorylated Tau peptide).
With CSCC[C@H](NC(=O)[C@@H](N)CCCNC(=N)N)C(=O)N[C@@H](CO)C(=O)N[C@@H](C)C(=O)N1CCC[C@H]1C(=O)N[C@@H](CO)C(=O)N[C@H](C(=O)NCC(=O)NCC(=O)N[C@H](C(=O)O)C(C)C)[C@@H](C)O the IC50 was 0.747 µM (HLA class I histocompatibility antigen, A alpha chain, allele A*02:03 (Homo sapiens, UniProt P04439); peptide binding, binding; HLA-A2 subtype).
The IC50 of NC[C@@H]1O[C@H](O[C@H]2[C@@H](O)[C@H](O[C@@H]3[C@@H](O)[C@H](N)C[C@H](N)[C@H]3O[C@H]3O[C@H](CN)[C@@H](O)[C@H](O)[C@H]3N)O[C@@H]2Cn2cc(COCCCCCCCCOCc3cn(C[C@H]4O[C@@H](O[C@@H]5[C@@H](O)[C@H](N)C[C@H](N)[C@H]5O[C@H]5O[C@H](CN)[C@@H](O)[C@H](O)[C@H]5N)[C@H](O)[C@@H]4O[C@H]4O[C@@H](CN)[C@@H](O)[C@H](O)[C@H]4N)nn3)nn2)[C@H](N)[C@@H](O)[C@@H]1O is reported as 0.067 µM (HIV-1 TAR RNA; ethidium displacement; pH 6.8).
With CC(=O)N[C@@H](Cc1ccccc1)C(=O)N[C@@H](CC(C)C)C(=O)N[C@H](C(=O)N[C@@H](CC(=O)O)C(=O)CCl)[C@@H](C)O the IC50 was 43.4 µM (Caspase-6 (CASP6, Homo sapiens, UniProt P55212); enzyme activity, inhibitor, fluorescence).
For CNC(=O)c1ccc(-c2cnc3cnc(C(=O)N(C)c4ccc(Cl)cc4)cn23)cc1, the IC50 was 0.017 ± 0.012 µM (Phosphatidylinositol 4-kinase (Cryptosporidium parvum, UniProt Q5CVD3); enzyme activity; together with: ATP 3 µM).
CNC(=O)NC(=N)NCCC[C@@H]1NC(=O)[C@@H](CO)NC(=O)C[C@@H](C(=O)O)NC(=O)C[C@@H](C(=O)O)NC(=O)[C@H](Cc2ccccc2)N(C)C1=O gave an IC50 of 0.28 µM (Endochitinase B1 (Aspergillus fumigatus, UniProt Q873X9); enzyme activity, inhibitor, fluorometric; 10 min, pH 5.5, 37 °C, together with: 20 µM 4-MU-chitobiose).
With O=C(NC12CC3CC(CC(C3)C1)C2)c1cc2cc(Cl)ccc2[nH]1 the IC50 was 21 µM (Cytochrome P450 2C19 (CYP2C19, Homo sapiens, UniProt P33261); inhibitor).
CC[C@H](C)[C@H](NC(=O)[C@H](CC(N)=O)NC(=O)[C@H](CCC(=O)O)NC(=O)[C@H](CCCCN)NC(=O)[C@@H](NC(=O)[C@@H](NC(=O)CN)[C@@H](C)O)[C@@H](C)CC)C(=O)N[C@H](C(=O)NCC(=O)N[C@H](C(=O)N[C@@H](CO)C(=O)N[C@@H](Cc1ccc(O)cc1)C(=O)N[C@@H](CC(=O)O)C(=O)N[C@@H](CCC(=O)O)C(=O)N[C@@H](Cc1ccc(O)cc1)C(=O)N[C@@H](CCCNC(=N)N)C(=O)N[C@@H](Cc1ccc(O)cc1)C(=O)N[C@@H](CCCNC(=N)N)C(=O)O)C(C)C)[C@@H](C)CC has an IC50 of 15 µM (CSNK2A1; enzyme activity, inhibitor, radiometric; pH 7.5).
With CN(C)CP(C)(=O)O the IC50 was 154 ± 6 µM (Urease subunit alpha, with UreA, UreB (ureC, Proteus mirabilis, UniProt P17086); whole-cell urease activity, inhibitor; 15 min preincubation, pH 5.5, 37 °C, together with: 5 mM urea).
The IC50 of O=C(COc1ccc2c(c1O)C(=O)c1ccccc1C2=O)c1ccccc1 is reported as 60 ± 5 µM (Gag-Pol polyprotein, reverse transcriptase (gag-pol, Human immunodeficiency virus 1, UniProt P03366); RNA-dependent DNA polymerase activity; wild-type reverse transcriptase).
CCC(=O)Nc1cc(Nc2cc(NC3CC3)n3ncc(C#N)c3n2)ccc1N(C)CCNC gave an IC50 of 0.00631 µM (CSNK2A1; target engagement in cells, BRET).
With O=C(CCCOc1ccc(Cl)cc1)N[C@H]1CCOC1=O the IC50 was 0.49 µM (Transcriptional activator protein LasR (lasR, Pseudomonas aeruginosa, UniProt P25084); reporter gene, antagonist; Escherichia coli, JLD271 with LasR plasmid; together with: OdDHL 2 nM).
For CC(C)NCc1ccc(C[C@@H]2NC(=O)[C@@H](Cc3c[nH]c4ccccc34)NC(=O)[C@H](Cc3ccccc3)NC(=O)[C@H](Cc3ccccc3)NC(=O)[C@H](CCCCN)NC(=O)[C@@H](N)CSSC[C@@H](C(=O)O)NC(=O)[C@H](CO)NC(=O)[C@H]([C@@H](C)O)NC(=O)[C@H](Cc3ccc(O)cc3)NC(=O)[C@H]([C@@H](C)O)NC2=O)cc1, the IC50 was > 1 µM (Somatostatin receptor type 2 (SSTR2, Homo sapiens, UniProt P30874); ligand displacement, radioligand; cell membranes).
For C[C@]1(COC(=O)c2ccc(O)c(O)c2)[C@H](C(=O)O)N2C(=O)/C(=C/c3ccccn3)[C@H]2S1(=O)=O, the IC50 was 0.0013 ± 0.0002 µM (Beta-lactamase (ampC, Pseudomonas aeruginosa, UniProt P24735); inhibitor; together with: nitrocefin).
CCCCC[N+](CCCCC)(CCCCC)CCCCC gave an IC50 of 13 µM (Potassium channel subfamily K member 2 (Kcnk2, Rattus norvegicus, UniProt Q920B6); ion current, inhibitor; oocytes).
With CC(C)C[C@H](NC(=O)[C@@H](CCCCN)NC(=O)[C@H](Cc1c[nH]cn1)NC(=O)[C@H](CO)NC(=O)[C@H](Cc1c[nH]c2ccccc12)NC(=O)[C@H](Cc1c[nH]cn1)NC(=O)[C@@H]1CCC(=O)N1)C(=O)N[C@@H](CCCNC(=N)N)C(=O)N1CCC[C@H]1C(=O)NCC(N)=O the IC50 was 0.003 µM (Gonadotropin-releasing hormone receptor (Rattus norvegicus, UniProt P30969); ligand displacement in cells, radioligand).
N#Cc1cn([C@@H]2O[C@H](CSCC[C@H](N)C(=O)O)[C@@H](O)[C@H]2O)c2ncnc(N)c12 gave an IC50 of 0.03 µM (RNA 5'-monophosphate methyltransferase (BCDIN3D, Homo sapiens, UniProt Q7Z5W3); enzyme activity, inhibitor, radiometric).
With COc1ccccc1[C@@H](NS(=O)(=O)c1cc2ccc(O)nc2cc1Cl)C(=O)N(CC(=O)NCCn1cc(COCCOCCOCCOCC(=O)N[C@H](C(=O)N2C[C@H](O)C[C@H]2C(=O)NCc2ccc(-c3scnc3C)cc2)C(C)(C)C)nn1)Cc1cccs1 the IC50 was 0.27 µM (UDP-N-acetylglucosamine--peptide N-acetylglucosaminyltransferase 110 kDa subunit (OGT, Homo sapiens, UniProt O15294); enzyme activity, inhibitor, fluorescence).
For Cn1nnnc1-c1cccc(NC(=O)CCS)c1, the IC50 was 3.23 µM (blaNDM-1; enzyme activity, inhibitor, fluorescence; with preincubation).
CC[C@H](C)[C@@H]1NC(=O)[C@H](Cc2ccccc2)NC(=O)[C@H]([C@@H](C)O)NC(=O)[C@H]([C@@H](C)CC)NC(=O)[C@H](CCCNC(=N)N)NC(=O)[C@@H](Cc2ccc(O)cc2)NC(=O)CSC[C@@H](C(=O)NCC(N)=O)NC(=O)[C@H](Cc2ccccc2)NC(=O)[C@H](C(C)C)NC(=O)[C@H]([C@@H](C)CC)NC(=O)[C@H](CC(C)C)NC(=O)[C@H]([C@@H](C)CC)NC(=O)[C@H](CCC(N)=O)NC(=O)[C@H](CC(=O)O)NC(=O)[C@H](CC(N)=O)NC(=O)[C@H](CC(C)C)NC(=O)[C@H](CCCNC(=N)N)NC1=O gave an IC50 of 0.437 µM (Nicotinamide N-methyltransferase (NNMT, Homo sapiens, UniProt P40261); enzyme activity, inhibitor, mass spectrometry).
The IC50 of CC1OC(OC2CC3OC(C)(C)OCC34C3C(O)CC5(C)C(C6=CC(=O)OC6)CCC5(O)C3CCC4(O)C2)C(O)C(O)C1O (stereo not drawn) is reported as 12.4 µM (porcine Na+/K+-ATPase; enzyme activity, colorimetric phosphate release).
For C[C@H](CS)C(=O)Nc1cccc(-n2nccn2)c1, the IC50 was 3.7 µM (Metallo-beta-lactamase type 2 (Serratia marcescens, UniProt P52699); inhibitor; 10 min preincubation, together with: FC5 substrate).
For CN(C)C(=O)[C@@H](NC(=O)c1cnccc1-c1ccc(C(F)(F)F)cc1)c1cc(Cl)cc(C(F)(F)F)c1, the IC50 was 0.2 ± 0.1 µM (KLRK1 with ULBP6; ligand binding, inhibitor, TR-FRET; HEK293 expressing NKG2D and DAP10; together with: ULBP6-AF647).
For Nc1ncnc2c1ncn2[C@@H]1O[C@H](CSCCNC(=O)NCCc2ccccc2)[C@@H](O)[C@H]1O, the IC50 was > 50 µM (Protein arginine N-methyltransferase 1 (PRMT1, Homo sapiens, UniProt Q99873); enzyme activity, inhibitor, radiometric).
C=C(NC(=O)C(=C)NC(=O)c1csc(C2=NC3c4csc(n4)C4NC(=O)c5csc(n5)C(C(C)(O)C(C)O)NC(=O)C5CSC(=N5)C(=CC)NC(=O)C(C(C)O)NC(=O)c5csc(n5)C3(CC2)NC(=O)C(C)NC(=O)C(=C)NC(=O)C(C(C)C)NC2C=Cc3c(C(C)O)cc(nc3C2O)C(=O)OC4C)n1)C(N)=O (stereo not drawn) has an IC50 of 3.9 ± 0.2 µM (Proteasome Macropain subunit MB1 (PSMB5, Homo sapiens, UniProt P28074); chymotrypsin-like activity, inhibitor; purified human 20S proteasome; 37 °C, 15 min preincubation, together with: Suc-Leu-Leu-Val-Tyr-AMC).
CCCn1nnc(-c2cccc(NC(=O)[C@H](C)CS)c2)n1 gave an IC50 of 2.37 µM (blaNDM-1; enzyme activity, inhibitor, fluorescence; with preincubation).
With CN(C)C(=O)[C@@H](NC(=O)c1cc(-c2ccnn2C)ccc1-c1ccc(C(F)(F)F)cc1)c1cccc(C(F)(F)F)c1 the IC50 was 0.7 ± 0.3 µM (KLRK1 with ULBP6; ligand binding, inhibitor, TR-FRET; HEK293 expressing NKG2D and DAP10; together with: ULBP6-AF647).

For quick reference, copied from above:
For C[C@]1(COC(=O)c2ccc(O)c(O)c2)[C@H](C(=O)O)N2C(=O)/C(=C/c3ccccn3)[C@H]2S1(=O)=O, the IC50 was 0.0013 ± 0.0002 µM (Beta-lactamase (ampC, Pseudomonas aeruginosa, UniProt P24735); inhibitor; together with: nitrocefin).
With O=C(CCCOc1ccc(Cl)cc1)N[C@H]1CCOC1=O the IC50 was 0.49 µM (Transcriptional activator protein LasR (lasR, Pseudomonas aeruginosa, UniProt P25084); reporter gene, antagonist; Escherichia coli, JLD271 with LasR plasmid; together with: OdDHL 2 nM).
With CN(C)CP(C)(=O)O the IC50 was 154 ± 6 µM (Urease subunit alpha, with UreA, UreB (ureC, Proteus mirabilis, UniProt P17086); whole-cell urease activity, inhibitor; 15 min preincubation, pH 5.5, 37 °C, together with: 5 mM urea).
